Measurements collected from several papers.
Every numbered part comes from another study and shows a few of its results, in no order. Positions count from the first letter of the parent shown.

Series 1 — method: RNA Bind-n-Seq; form: RNA; sample: in vitro; concentration: 365 nM; relative to: no-protein control; direction: higher = stronger binding
Target: RNA binding protein fox-1 homolog 2, RRM domain, GST-SBP tag (RBFOX2, Homo sapiens, UniProt O43251-10, residues 100-194)
Setting: natural RNA segment, single round, ends assumed
Constant ends, left off below: GGGAGUUCUACAGUCCGACGAUC … UGGAAUUCUCGGGUGCCAA
Residues (chain): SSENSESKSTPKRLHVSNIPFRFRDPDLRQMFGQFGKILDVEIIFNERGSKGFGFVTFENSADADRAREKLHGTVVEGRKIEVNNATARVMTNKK
Oligonucleotide | RBNS enrichment (R)
UUAAGUGAGGCCCAUUCUUGUUUUUACAUCGGUCCUUUGUGGUUUUUCUGGGCCAGCAGAGAUUCUGCACCCCAACUCCCAGGAGAAAAUGUAAUACCUGAGCAAGCACA | 0.496
UGAGGCUCCAGCCUGUUUAGUGCAUGGGCAGCCAUCCUGGCAGCCAAGACAUCUCUGACAGAAGUGUUUUUGUUUGGUUUUGUUUUUUAAGAUUAUGUAUUUGCUACAAA | 8.36
UUGGAUAUGGAUUUAAAUGGUCUCUAAGAGCCGGGGGUAGGGGGCAGGAAAAGUGGGUUGUCUUUGCCCCUCAAAGUCCACCUACCUAGAAACCAAGCCCACGGUCUUGG | 0.39
AAGACUGGAGGAAGUGAACACUGGAGUGAAGAAGCGGUCUGUGCGUUGGUGAAGAACACACAUCGAUUCUGCACCUGGGGACCCAGAGCGAGAUGGGUUUGUUCGGUGCC | 1.18
UGCCAGAACUUACGCAUCCAAUGUGGGUUGUCACUUGUUAUUCCCAAGUACUAUUAUUCCAUACUACUAUAUUCUUCCAAAUAUUUGGAACACUCUUAGAAUUCCCAUUU | 1.22
ACAUCUUUCUUCUCCAUCACUCCACGCCUCCAUCCAAGCUCAGUUUCCACUCGCCCACCAGAAGCAGCUCUAGUCACCUGCACAACCGCUUCCAUGACCUUGGAGGUAUA | 0.486
GCUUUGAUCACCACAGUCUCUAACUUGCUGCUUUCUCCAGAAGCCUUUUUAUGUAUGGGUUAGAAACUCUUUUUUCCCUAGUCAGAGCAGCCAGGCUGUACAAAAUCUGU | 0.448
UCCAUCUGAGCAAACAGGUAAUUUAAGCAUUUAUCUCCCCUUUCACUUUCAAAAAGAAUCAUCAUUGAUUAUUCUUGUUUCACAUCUGAGGAUGAAGGCUAACGGCUGUG | 0.566
GCUUCCUUAUCUGGAAGCCUUUCUGGAUUAAUCCAGUGAUGGUCCCACCUUUAGUGUUUGAGCUUUGUCAUUGCUUGUCUCCCUGGCAUGUGCCAGUUAUAGACUGUCCA | 0.278
UCUUCAAAAAUGGUCACAGAAUGCCUUUUAAAACAUUGUAUAUAAUCUUCACUGUUUCACCAUCUAGCUUGCUAAGUCAAAUAUUUAUGAUGAUAAUGAGGUACUGAACC | 0.434
CCCCAAAUUCUUUUGUUGUGUGUGCGAAGGGGGUUUUGCGCACUGUGCCAAGCCUUGUCCACUGGAAUGCAUCCAGAACAGCAGCACCAUCUAGCGGCAGGUUGAGGAAA | 1.68
GGACCCUUCCUCACCCCACCUGUCGGUCUUGUCCUGGCUCUGCCUGUCCCCCACCGUUGUUCUCGUAGGUGAACCCCAGGUCCUCAACUCCCCCCCUUUAUGUGUUGAAA | 0.995

Series 2 — method: competition protein-binding microarray; form: double-stranded DNA, one strand shown; sample: in vitro; concentration: 2 µM; together with: Cbf1 competitor, 0.05 µM; direction: higher = stronger binding; constant ends, left off below: … GTCTTGATTCGCTTGACGCTGCTG
Target: Phosphate system positive regulatory protein PHO4, full length, GST-tagged (PHO4, Saccharomyces cerevisiae, UniProt P07270, residues 1-312)
Setting: whole 60-bp probe, lowest competitor level
Residues (chain): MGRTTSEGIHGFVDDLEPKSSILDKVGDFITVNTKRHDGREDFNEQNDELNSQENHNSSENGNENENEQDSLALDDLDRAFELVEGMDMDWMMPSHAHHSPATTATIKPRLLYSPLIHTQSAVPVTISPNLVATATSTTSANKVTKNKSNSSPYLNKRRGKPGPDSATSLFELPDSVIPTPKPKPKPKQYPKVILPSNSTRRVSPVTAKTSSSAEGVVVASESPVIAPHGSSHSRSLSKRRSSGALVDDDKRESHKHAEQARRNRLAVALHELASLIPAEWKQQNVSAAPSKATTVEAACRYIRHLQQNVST
Oligonucleotide | fluorescence intensity
TTCAGCAAACGGCAGCATGTGAAAAAACCCGTAGAA | 5960 a.u.
TCGGAGAAAGCATCTCACGGGGAACAATTGGTTAGA | 4960 a.u.
CGTCCTAGTGATTGGATAGTGGGTGCCATGAGGAAG | 6970 a.u.
GAAAAATTAATCCGACATGTGGAATATTTCCTTCCG | 8720 a.u.
TGAACCCTTGATATAAACGTGATGGTTATTATCGGT | 10800 a.u.
CGGGGTTAAGTTTGGCCGGTGGGTGGCTTGCAGCAG | 4550 a.u.
GCTTGTATGCTATACCATGTGATATGTAATAGTACA | 8860 a.u.
CATTCGAAGCAGTGCCAAGTTCTATTGTATCATTCC | 3580 a.u.
GTTGGACCTTGGTTCCACGGGGTTCATTTCAGGCTG | 7340 a.u.
AACGGTTGATTCATTAATGTGATGCTTGTTCACCCT | 3580 a.u.
CATACCCAACCTTGATAGGTGGGTGAAGATATTTGT | 3660 a.u.
CAGAACAGGTTTGTATTCGTGATGGTGTCCCTGAAG | 4370 a.u.
AAATTACTAAGTTGACTCGTGGGTGACGCCGTATGA | 10400 a.u.
CGGGGTTAAGTTTGCAATGTGGGTGGCTTGCAGCAG | 6030 a.u.
TAACGCGATTTACGCTCCGTGCAAAACGATTCTTTG | 4210 a.u.
AAATTACTAAGTTGCCCAGTGGGTGACGCCGTATGA | 3860 a.u.
TTAAGTCTATTATCAAGCATGATAACCATCATCAAT | 4420 a.u.

Series 3 — method: RNA Bind-n-Seq; form: RNA; sample: in vitro; concentration: not given; relative to: input RNA pool; direction: higher = stronger binding
Target: RING finger protein unkempt homolog, zinc fingers 1-6, GST-SBP tag (UNK, Homo sapiens, UniProt Q9C0B0, residues 30-357)
UniProt Q9C0B0, sequence (30-357, looked up): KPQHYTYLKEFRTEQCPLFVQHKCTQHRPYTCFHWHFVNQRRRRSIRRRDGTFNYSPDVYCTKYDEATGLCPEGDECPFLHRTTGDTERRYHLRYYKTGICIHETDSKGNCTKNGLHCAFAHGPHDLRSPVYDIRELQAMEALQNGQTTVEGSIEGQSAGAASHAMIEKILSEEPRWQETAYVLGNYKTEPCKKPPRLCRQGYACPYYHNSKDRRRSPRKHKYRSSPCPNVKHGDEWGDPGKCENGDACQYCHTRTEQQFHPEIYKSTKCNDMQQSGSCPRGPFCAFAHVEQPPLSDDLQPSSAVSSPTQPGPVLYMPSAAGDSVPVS
Setting: RNA with constant flanks, human-mouse chimeric sites, ends assumed
Constant ends, left off below: GGGAGUUCUACAGUCCGACGAUC … CAACAGAGGAUUGAGCAUCA
Oligonucleotide | bound/input enrichment [ratio]
UCUUUAAAAAAAAAAUUACCUUUUCUGACAGUGCUUUCCCUCCCAUAGAUCCACGUUCACACUAGAAGGCCAAAACUUUUGCACGGAGCUCAAACAUCUGAUGAAGAAAGAUUUCUGAGA | 2.56
CCAAUUGUGGAGCAGUACUUGAAGACAAAGAAAAAUUCUAAUAAUUUAAUCAUGAAAUACAUUAGCUGCCGGCUGGUGACACUCAUCAUUAUACUGUUAGCGUGUAUCUACCUGGGCUAU | 0.439
UAAGUUAAGCUUUUAAUCUUUGUAAAUUCUUAACAUUUUUAUAUUGCCAUGUUUAUUUUGUUUGGGUAAUUUGGUUCAUACAUGGCCUAGCUAAGGUAAUGAACAUCUUUUUCAGUAAUU | 0.497
CUGUGACCACAAGAUCCUACCUGAGUGGCAGCUGAAGUUGACUCCCUCUCCUUGCCUGAACCCCCCCCCACUGCCCCUUGAGUCCACAGUGUCGGCUAUUCUCUGGUCUCUGCACGGUUC | 0.323
UGUAGUUCUGAAUACACGGCUUUGUGUGUAGUUCACUUACGGUAUUAAAUUAUUAUUCUGCUUAGCUUAUAAUAAGGAUAAUUGCAUUUAAAGAGGUUACUGAAUGUUACUCUGAAACUU | 0.855
AACUUCGUGCAUCGGUUUCCCUUUGUAGCUGUUUCAAUUGGCUUCCUUGUAAAUAAAAAGAUAGAAUUUGGAAUUGUGUACAGCUGUGUGGAAGAUAAGAUGUACACCGGCAGGAAAGGG | 4.24
AAAGGCAAAAAGGGCAGCUGUGUCAUUUCAUAAGUAACUCUGGGGGAGGGAAAUUCUGUUCUUUUGUUUAAUUUUCCCCCAAAUGAAACCAACAUGCGUGUUGAAGAACUGAGAAAAAAU | 0.357
AAAGAACCUCUCUCUGAUGAAGAUGAGGAAGACAAUGAUGAUGUUGAACCCAUUUCUGAAUUUCGAUUUGUGCCCAGUGAUAAGUCAGCAUUGGAGGCAAUGUUCACAGCAAUGUGUGAG | 0.192
AACAGAUUGUCUUUAAGCAUUCCAAGCGAGAAUGCUGGGGUGAUCAUUGUUGCCCAUAUAUAGUAAUACUGAGCUUUAAUGCUGUUCAUCCUUGAUGCUUUCCUUCACUCCAGAAUUGUU | 0.48
UUGCUACUGACUCCCUGGGUCAAGUUCCUGUGGGAGUCAUACAGGCAGUGUUUGGACCUUCUUCGAAACAAUUCUAGAGUAGAGCGCCUUUACCAUGAUAUUGCCCAACAAGCUUUCAAA | 0.108
GAAACAUUUAAAUUUAAAGAAGCUGUUGUUCUAGGAAGUACGGACUUUCUAGAAGAUGAUAUAGAAAAAAUUGUAGAAGAACUGGGAAAAGAGUAUAAGGGCAACGCCUACCAUCUGAUG | 1.49

Series 4 — target: CCND2, cyclin fold, Cln2 fusion (human); method: yeast growth competition, sequencing; sample: yeast; setting: weak parent motif; relative to: not given; direction: higher = stronger binding
Parent: WEE1 docking peptide (human); HKTFRKLRLFDTP
Change | normalised enrichment score
R8A | 0.152
K6T | 0.168
K2W | 0.183
F4E | 0.329
D11H | -0.777
F10I | 0.419
T3R | -0.161
T3P | -0.0169
P13L | -0.0672
L9S | 0.664
R5A L7A | 0.293
H1A | -0.0475
H1R | 0.75
P13M | 0.652
L9R | -0.211
R5K | -0.198
F4Q | -0.0117
K2S | 0.0553
L9G | 0.426
D11G | -0.81
R8S | 0.351
L9Y | 0.709
D11S | -0.251
K2G | 0.0136
T3D | 0.212

A few entries again (series 3):
Oligonucleotide | bound/input enrichment [ratio]
UAAGUUAAGCUUUUAAUCUUUGUAAAUUCUUAACAUUUUUAUAUUGCCAUGUUUAUUUUGUUUGGGUAAUUUGGUUCAUACAUGGCCUAGCUAAGGUAAUGAACAUCUUUUUCAGUAAUU | 0.497
CUGUGACCACAAGAUCCUACCUGAGUGGCAGCUGAAGUUGACUCCCUCUCCUUGCCUGAACCCCCCCCCACUGCCCCUUGAGUCCACAGUGUCGGCUAUUCUCUGGUCUCUGCACGGUUC | 0.323
UGUAGUUCUGAAUACACGGCUUUGUGUGUAGUUCACUUACGGUAUUAAAUUAUUAUUCUGCUUAGCUUAUAAUAAGGAUAAUUGCAUUUAAAGAGGUUACUGAAUGUUACUCUGAAACUU | 0.855
AACUUCGUGCAUCGGUUUCCCUUUGUAGCUGUUUCAAUUGGCUUCCUUGUAAAUAAAAAGAUAGAAUUUGGAAUUGUGUACAGCUGUGUGGAAGAUAAGAUGUACACCGGCAGGAAAGGG | 4.24
AAAGGCAAAAAGGGCAGCUGUGUCAUUUCAUAAGUAACUCUGGGGGAGGGAAAUUCUGUUCUUUUGUUUAAUUUUCCCCCAAAUGAAACCAACAUGCGUGUUGAAGAACUGAGAAAAAAU | 0.357
AAAGAACCUCUCUCUGAUGAAGAUGAGGAAGACAAUGAUGAUGUUGAACCCAUUUCUGAAUUUCGAUUUGUGCCCAGUGAUAAGUCAGCAUUGGAGGCAAUGUUCACAGCAAUGUGUGAG | 0.192
AACAGAUUGUCUUUAAGCAUUCCAAGCGAGAAUGCUGGGGUGAUCAUUGUUGCCCAUAUAUAGUAAUACUGAGCUUUAAUGCUGUUCAUCCUUGAUGCUUUCCUUCACUCCAGAAUUGUU | 0.48
UUGCUACUGACUCCCUGGGUCAAGUUCCUGUGGGAGUCAUACAGGCAGUGUUUGGACCUUCUUCGAAACAAUUCUAGAGUAGAGCGCCUUUACCAUGAUAUUGCCCAACAAGCUUUCAAA | 0.108
